Experimental data pooled from the literature.
Numbered parts are unrelated; each lists some results of a single study. Substitutions count along the parent as printed.

Set 1 — technique: RNA Bind-n-Seq; molecule type: RNA; sample: in vitro; tested at: 200 nM; setting: whole 134-nt RNA, ends assumed; with: 150 mM LiCl; baseline: input library; direction: higher = stronger binding; all molecules: 7-deaza-guanosine replaces G
Target: Fragile X messenger ribonucleoprotein 1, C-terminal low-complexity region (Fmr1, Mus musculus, UniProt P35922)
Constant ends, left off below: GGGAGUUCUACAGUCCGACGAUC … UGGAAUUCUCGGGUGUCAAGG
| Strand | log2 enrichment |
| --- | --- |
| CAAGUCCUGUGCUACACAUCGUAUGUACCGAAUCGGGGCCCGGGGCCCGGCCCGGGAAAGUAUUAUGUUACGCCGUUCGGAUCUGCACUU | -1.65 |
| CAAGUCCUGUGCUACACAUCGUAUGUACCGAAUCGGGUUUGGGAAAAAGGGAGGGAAAGUAUUAUGUUACGCCGUUCGGAUCUGCACUUC | -0.187 |
| CACAGACACCACGCACCCACACAGACACAGAGGGAAGGGGUUGGGAUGGGGACAGGGUGCACAGCAGGGCGGGGUAGGACCCCAGCCCCU | 0.908 |
| UCAAGUCCUGUGCUACACAUCGUAUGUACCGAAUCGGGCCCGGCCCGGGGCCCGGAAAGUAUUAUGUUACGCCGUUCGGAUCUGCACUUC | -1.31 |
| CACAGACAACACGCACCCACACAGACACAGAGGGAAGGGGUUGGGAUGGGGACAGGGUGCACAGCAGGGCGGGGUAGGACCCCAGCCCCU | 0.02 |
| UGUGCUACACAUCGUAUGUACCGAAUCGGGGUUUUUUUGGGGAAAAAAAGGGGAAAAAGGGGAAAGUAUUAUGUUACGCCGUUCGGAUCU | -1.57 |

Set 2 — technique: competition protein-binding microarray; molecule type: double-stranded DNA, one strand shown; sample: in vitro; tested at: 2 µM; with: Pho4 competitor, 0.05 µM; direction: higher = stronger binding; constant ends, left off below: … GTCTTGATTCGCTTGACGCTGCTG
Target: Centromere-binding protein 1, full length, His-tagged (CBF1, Saccharomyces cerevisiae, UniProt P17106, residues 1-351)
Sequence of UniProt P17106 (whole entry, looked up): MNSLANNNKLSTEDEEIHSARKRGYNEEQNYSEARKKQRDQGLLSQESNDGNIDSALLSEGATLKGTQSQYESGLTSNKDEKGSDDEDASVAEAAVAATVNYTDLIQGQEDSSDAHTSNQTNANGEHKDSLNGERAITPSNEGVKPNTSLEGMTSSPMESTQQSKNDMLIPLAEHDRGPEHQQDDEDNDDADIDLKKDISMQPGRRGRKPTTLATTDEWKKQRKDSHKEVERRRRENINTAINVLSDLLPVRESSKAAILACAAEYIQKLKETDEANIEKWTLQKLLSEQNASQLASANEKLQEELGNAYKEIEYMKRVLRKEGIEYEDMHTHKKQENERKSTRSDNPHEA
Setting: whole 60-bp probe, lowest competitor level
| Strand | fluorescence intensity [a.u.] |
| --- | --- |
| TGAAAATACCATTTGGGAAGGTAACAAAATCATACA | 68.6 |
| CGTCCTAGTGATTGTCGCGTGGGTGCCATGAGGAAG | 109 |
| AGCGCCTGCGCCCACCACGTGCTGGCAAGAATTGGG | 1140 |
| AGAAGCTAAGACACTGTTCTCTTGACTAAATGAAAG | 59.8 |
| CACCTCCCGGTATTCAAGATGATGACAGTGAAGAGA | 69.9 |
| CTTTCCCGATCTTGCAAGGTGGGTGTAGCACATTTG | 72.6 |
| CACAAAGGTTCGTTGACCGTGCCGAGGAACTTCCGC | 64 |
| CGTCCTAGTGATTGCCGCGTGGGTGCCATGAGGAAG | 92.3 |
| CTATACCTGACGGTCCACGGGGTTGGCAGCCCGGTC | 73.6 |
| CTTTCCCGATCTTGTCACGTGTTTTTAGCACATTTG | 6020 |
| TGTTACTCTAAAGGACACGGGAGAAAAGGTCGCCCC | 78.2 |

Set 3 — technique: protein binding microarray; molecule type: double-stranded DNA, one strand shown; sample: in vitro; tested at: not given; baseline: not given; direction: higher = stronger binding
Target: Histone acetyltransferase KAT6A, both winged helices, GST fusion (KAT6A, Homo sapiens, UniProt Q92794, residues 1-181)
Setting: 8-mer, flanks averaged, mean of 2 arrays, mostly near background
Target sequence (chain): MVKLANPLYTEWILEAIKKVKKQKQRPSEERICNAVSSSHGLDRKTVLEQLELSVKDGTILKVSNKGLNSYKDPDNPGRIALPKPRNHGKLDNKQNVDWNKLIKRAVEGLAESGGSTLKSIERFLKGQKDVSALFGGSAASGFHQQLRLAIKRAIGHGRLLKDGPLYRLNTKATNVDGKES
| Strand | E-score |
| --- | --- |
| GAGACGTA | -0.0851 |
| CGCGCCTA | 0.295 |
| CGTATTGC | 0.155 |
| ATCACGAT | -0.091 |
| CAGTACAG | -0.129 |
| AAGGTCGG | 0.105 |
| AACAGCAA | -0.195 |
| GCAATAGA | -0.0279 |
| CAACGGCA | 0.201 |
| AGGTCAAT | -0.168 |
| CTCTAAAG | -0.195 |
| CCACACCA | -0.134 |
| GGCTGTAA | -0.0666 |
| CAAAGTTC | -0.129 |
| CATTGACC | 0.0145 |
| TGGTCAAA | -0.14 |
| CACACTAA | -0.16 |
| GCAACGAA | -0.0404 |
| CGTTGAAG | -0.0086 |
| AAGGGTGA | -0.0854 |
| ACGCTCCA | 0.0311 |
| GGAGGGGA | -0.0612 |

Set 4 — target: CCNB3, cyclin fold, Cln2 fusion (human); technique: yeast growth competition, sequencing; sample: yeast; setting: weak parent motif; baseline: not given; direction: higher = stronger binding
Parent: E2F3 docking peptide (human); PPAKRRLELGESG; partner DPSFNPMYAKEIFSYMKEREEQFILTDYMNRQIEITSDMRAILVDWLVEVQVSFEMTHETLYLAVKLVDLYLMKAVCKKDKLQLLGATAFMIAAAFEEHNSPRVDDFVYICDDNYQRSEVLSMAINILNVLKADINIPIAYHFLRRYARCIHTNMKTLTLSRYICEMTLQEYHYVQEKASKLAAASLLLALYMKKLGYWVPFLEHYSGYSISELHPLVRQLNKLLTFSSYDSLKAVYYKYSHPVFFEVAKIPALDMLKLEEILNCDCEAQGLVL
| Substitution | normalised enrichment score |
| --- | --- |
| L7A | 0.102 |
| E8A | 0.315 |
| R5A | 0.251 |
| R5K | -0.71 |
| K4A | 0.165 |
| G10A | 0.456 |
| G13A | -0.195 |

Set 5 — technique: RNA Bind-n-Seq; molecule type: RNA; sample: in vitro; tested at: not given; baseline: input RNA pool; direction: higher = stronger binding
Target: RING finger protein unkempt homolog, zinc fingers 1-6, GST-SBP tag (UNK, Homo sapiens, UniProt Q9C0B0, residues 30-357)
Setting: RNA with constant flanks, human and mouse sites, ends assumed
Constant ends, left off below: GGGAGUUCUACAGUCCGACGAUC … CAACAGAGGAUUGAGCAUCA
Residues (chain): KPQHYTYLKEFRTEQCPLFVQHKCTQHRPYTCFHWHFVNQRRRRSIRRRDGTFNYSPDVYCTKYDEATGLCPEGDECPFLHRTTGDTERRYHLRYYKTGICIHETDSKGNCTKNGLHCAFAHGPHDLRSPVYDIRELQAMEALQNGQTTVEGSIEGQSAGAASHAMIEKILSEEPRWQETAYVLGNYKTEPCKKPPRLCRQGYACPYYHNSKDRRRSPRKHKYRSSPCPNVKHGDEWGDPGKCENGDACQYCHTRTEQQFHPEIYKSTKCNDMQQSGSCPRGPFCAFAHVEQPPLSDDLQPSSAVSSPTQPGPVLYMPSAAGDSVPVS
| Strand | bound/input enrichment [ratio] |
| --- | --- |
| AAUGAAGUGGUUCAAUCUGGAAGAAAGACUAAGCCCAUUAUUCCAGAGAUGUGUUUUAUUUAUAGUGAAGAAAAUGUAGACUAUUCCCCCCCAAAUGCCUUCCUUGAAGAAGAUGGAACA | 0.471 |
| UAACACGUUGAAUGCUGCCAGCUUUUUCUUUUUCUUUCUUUUUUUUUUUUUUUUUUCCUUCCAGGGCCGUUUUCUGAUAUAUGUUGGGUAUCAUAGAGUGAAUCUCAGAACAGGAAGCGG | 8.53 |
| UACUCAACUUUCUUGCCACAUUUUGAAUUCCAAGACAUUAUUCCUCCAGAUGACUUCCUAACGAGUGAUGAAGAGCAAGAUUUGGUUUUAUUUGGAACUAUGAGAGGACAAGUUGUUGGA | 0.174 |
| AGUCUGGUGAAUGAGACCACUCUGAUCAAAUACUCCAGGCUGCCAACCAUAAACAAGCAUAGUUUCCGGUACUUUGUUUUGGAUAACAGUGUCAUCCUGGCAAUGCUGGAGCAACCGCUU | 0.0333 |
| CUUAAUUCCGGAGAAAUUUAGGAAGAUGUCUUGUUAACCCUUGAUGUCUAGAGAUUGGGGGCUGGUGAAGGGGGUUUGGCUUCAAUGACUGGAUAAUGAUAUCUUUCAUGAGAGAGAUUA | 0.863 |
| GUUGUUCAUAUCCCAAAAACUUUUAUAGGUAACUGUUUUCAAAUAGAAAACGUUUUAUUUGGUCAAUUUGAAUGUCAUUCUAAUUAUAAAAAUGACUUACACCUUUAUCAAUUGGUUACU | 0.844 |
| CUCGGCAAAAUCUAUGCUGGGACGCCUCGGUUUUUCCCUCUGGAUUUUAUCGUGCAGUUCUUGGAGCAGCAAGUUUGUACCUUAAACUGGGAUGUGGGGUUUGUGAUACAGACCAUGAAU | 0.135 |
| AGACGACGGGAAUAUCAGUUAUCUGACUCUACCAAAUACUAUCUGAAUGACUUGGACCGUGUAGCCGACCCUUCCUAUCUGCCUACACAACAAGACGUGCUUAGAGUUCGAGUCCCCACU | 0.21 |

Some of these lines once more (set 3):
| Strand | E-score |
| --- | --- |
| AACAGCAA | -0.195 |
| ACGCTCCA | 0.0311 |
| GGAGGGGA | -0.0612 |
| CAAAGTTC | -0.129 |
| CACACTAA | -0.16 |
| CAACGGCA | 0.201 |
| ATCACGAT | -0.091 |
| AAGGGTGA | -0.0854 |
